Assay results gathered from unrelated publications.
Every numbered part comes from another study and shows a few of its results, in no order.

Set 1
Target: Ras GTPase-activating protein-binding protein 1, full length (G3BP1, Homo sapiens, UniProt Q13283)
Sequence of UniProt Q13283 (whole entry, looked up): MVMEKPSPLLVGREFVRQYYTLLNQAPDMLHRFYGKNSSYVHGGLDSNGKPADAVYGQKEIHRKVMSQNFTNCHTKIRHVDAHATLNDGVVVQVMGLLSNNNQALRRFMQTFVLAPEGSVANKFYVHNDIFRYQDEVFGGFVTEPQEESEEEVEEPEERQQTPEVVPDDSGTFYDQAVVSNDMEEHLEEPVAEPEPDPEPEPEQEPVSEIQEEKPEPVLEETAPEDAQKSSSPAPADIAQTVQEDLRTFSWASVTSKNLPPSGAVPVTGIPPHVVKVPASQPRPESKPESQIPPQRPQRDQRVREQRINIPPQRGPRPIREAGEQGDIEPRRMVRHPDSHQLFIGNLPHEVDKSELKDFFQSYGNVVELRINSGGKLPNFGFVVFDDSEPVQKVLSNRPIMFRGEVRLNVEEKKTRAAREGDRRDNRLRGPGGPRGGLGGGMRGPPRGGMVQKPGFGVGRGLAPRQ
Technique: RNA Bind-n-Seq
Molecule type: RNA
Matrix: in vitro
Tested at: 200 nM
Notes: whole 134-nt RNA, ends assumed
Together with: 150 mM KCl
Reference: input library
Reading: higher = stronger binding
Constant ends, left off below: GGGAGUUCUACAGUCCGACGAUC … UGGAAUUCUCGGGUGUCAAGG
With `CCUCAAGUCCUGUGCUACACAUCGUAUGUACCGAAUCGGGAGGGAGGAGGGGAAAGUAUUAUGUUACGCCGUUCGGAUCUGCACUUCCAG` the log2 enrichment was 1.46.
The log2 enrichment of `AUAGAUUGCGCAGUCUCUUUGUGGAGAGGACUUGAUCAUUAAAGGAAUCAGCGUUCAUAUAUCCAAUGCCGAACCUAAGCACAAUAGCAA` is reported as -0.193.
`UAGUGAAAUUUCUAAUAUAUAUAUUUUUUUCUUUAGGAGAAGAAACGAAUGCAUCAGAUCAACAGAAUGAACCCCAGUUAGGCCUGAAAG` has a log2 enrichment of -1.01.
The log2 enrichment of `CACAGACAACACGCACCCACACAGACACAGAGGGAAGGGGUUGAGAUGGGGACAGGGUGCACAGCAGGGCGGGGUAGGACCCCAGCCCCU` is reported as 1.53.
`ACCAUGCAGGUGGGCAUCUUUGGGAAGUGGGGCAAGGGGGGGAUAGGGAUGGGGGUAACACUUUGGGAACAGGUGGUCCCAGGUCGUUUC` gave a log2 enrichment of 1.14.
With `AGUCCUGUGCUACACAUCGUAUGUACCGAAUCGGAAAAAAAGGUUUUUUUGGUUUGGAAAGUAUUAUGUUACGCCGUUCGGAUCUGCACU` the log2 enrichment was -1.73.
With `CACAGACAACACGCACCCACACAGACACAGAGGGAAGGGGUUAGGAUGGGGACAGGGUGCACAGCAGGGCGGGGUAGGACCCCAGCCCCU` the log2 enrichment was 1.74.
The log2 enrichment of `CUCAAGUCCUGUGCUACACAUCGUAUGUACCGAAUCGGAAAGGAAAGGAAAGGAAAGUAUUAUGUUACGCCGUUCGGAUCUGCACUUCCA` is reported as -0.655.
The log2 enrichment of `CCUGUGCUACACAUCGUAUGUACCGAAUCGGGGUUUUUUGGGGUUUUUUGGGUUUUUUGGGAAAGUAUUAUGUUACGCCGUUCGGAUCUG` is reported as -0.403.

Set 2
Target: Prothrombin, mature alpha-thrombin (F2, Homo sapiens, UniProt P00734)
Technique: aptamer microarray, sandwich
Molecule type: DNA with 2'F-ANA
Matrix: in vitro
Tested at: 200 nM
Notes: whole 15-mer aptamer, many near background
Together with: Cy3 exosite-II aptamer, 400 nM
Reading: higher = stronger binding
Sequence: GGTTGGTGTGGTTGG
Under “mean fluorescence intensity”, `2'F-ANA at 1 3 4 7 8 9 11 13` is recorded as 149 a.u.
For `2'F-ANA at 1 2 5 6 11 13 14`, “mean fluorescence intensity” read 56.4 a.u.
Under “mean fluorescence intensity”, `2'F-ANA at 1 4 5 6 9 11 12 13 14` is recorded as 54 a.u.
`2'F-ANA at 2 3 4 5 8 9 10 11 15` — result for “mean fluorescence intensity”: 50.3 a.u.
Under “mean fluorescence intensity”, `2'F-ANA at 2 3 4 5 7 9 14` is recorded as 48.1 a.u.
`2'F-ANA at 1 4 9 10 12 13 14` — result for “mean fluorescence intensity”: 58.7 a.u.
Under “mean fluorescence intensity”, `2'F-ANA at 1 4 5 6 8 11 13 14` is recorded as 49.7 a.u.
`2'F-ANA at 1 3 4 6 7 9 10 12`: “mean fluorescence intensity” 77 a.u.
`2'F-ANA at 1 2 3 4 5 6 9 12`: “mean fluorescence intensity” 118 a.u.
Under “mean fluorescence intensity”, `2'F-ANA at 2 3 6 7 8 11 12 13 14` is recorded as 431 a.u.
Under “mean fluorescence intensity”, `2'F-ANA at 1 3 4 11 12 13 15` is recorded as 261 a.u.
For `2'F-ANA at 2 4 5 6 7 10 12 13 14 15`, “mean fluorescence intensity” read 51.1 a.u.
`2'F-ANA at 4 6 7 8 9 10 12 15` — result for “mean fluorescence intensity”: 121 a.u.
For `2'F-ANA at 3 4 5 6 7 8 10 13 14 15`, “mean fluorescence intensity” read 47.7 a.u.
`2'F-ANA at 1 3 4 5 8 9 10 12 14`: “mean fluorescence intensity” 44.7 a.u.

Set 3
Target: RNA binding protein fox-1 homolog 2, RRM domain, GST-SBP tag (RBFOX2, Homo sapiens, UniProt O43251-10, residues 100-194)
Technique: RNA Bind-n-Seq
Molecule type: RNA
Matrix: in vitro
Tested at: 365 nM
Notes: natural RNA segment, single round, ends assumed
Reference: no-protein control
Reading: higher = stronger binding
Constant ends, left off below: GGGAGUUCUACAGUCCGACGAUC … UGGAAUUCUCGGGUGCCAA
Residues (chain): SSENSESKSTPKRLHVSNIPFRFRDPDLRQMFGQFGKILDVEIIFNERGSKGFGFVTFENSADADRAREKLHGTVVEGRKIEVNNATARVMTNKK
For `GUCAGCCACGGCUUCCACUUGCAUGGCUAUUCUAUUUUCACACGUGAGUUUCUGUUGCUGGCUGGCUGACUGGCAUUAUCUAUGCUAAGUUGAAAUCAGGGGUGCCCAGC`, “RBNS enrichment (R)” read 4.03.
`AACACGUAUGAAGUUUAUGCUGAUGCAAAGAACUUGGGUUUUUAUGUUAAUAUAAAGUGUUGUUUUAGCAUGUGGCCAGAUGAUGCUCUGUCAUCUUUAGAAAGUGAGAU` — result for “RBNS enrichment (R)”: 8.19.
Under “RBNS enrichment (R)”, `GCAUCUAACCGGAGUGGGAGGGCACAUCAAGCGAUUUCACUCUCUUAAAGAAAAGGUUUUUAGGUAUUUUUGGUAUUAUAUAGUCUCUAAGGCCAGAAGGGGCUUAUAAU` is recorded as 0.682.
`GGUGAGCCGAAUGGGCAUGGCUGCGCUGGAUCCUGCGCCUCUGGACGUGCUAGCCAUUUCCAGUGUCCCAACUACUGUCAUCGUGAGGUUUUCAUCGGCUGUGCCAUUUC`: “RBNS enrichment (R)” 0.22.
For `AUGGCUUUCUGCAACUUGCUACUCUCUCCCUCUCCAUCCCAUCUUUGCAGCCUCAUAGGGUGGGAUACAGCAGCUUUUUUUGCAGUUAUCCACACUCACAUUUCAGAGUC`, “RBNS enrichment (R)” read 0.385.
Under “RBNS enrichment (R)”, `GUGUGUUUGUGGCUCCAAGUUACAUUUUGUGUUUCAUUGAUCUAUAUGUAUAUAUGUGAUGUUUUCAUAUAUAUAUGUGUGUGUGUUUAAAUUUUGUAUCAUCAGGACUG` is recorded as 0.637.
`UCUUCUUUCCAUUCUUCUUGCUACACCCCUUUUCCAGUUGCUGUGGACCAAUGCAUCUCUUUAAAGGCAAAUAUUAUCCAGCAAGCAGUCUACCCUGUCCUUUGCAAUUG`: “RBNS enrichment (R)” 0.952.
Under “RBNS enrichment (R)”, `UGGGAGGCCGCCACUGAGCAUCUCUAUUUGUCAUUCCUUUAGCUAUUUAGGGACCAAAGGACCAAACUUUUUAUUGCAGAUGUGUAGCUCUGUCAAUUAGAGGUGGAAUG` is recorded as 0.412.

Set 4
Target: Histone acetyltransferase KAT6A, winged helix 1, GST fusion (KAT6A, Homo sapiens, UniProt Q92794, residues 1-85)
Technique: protein binding microarray
Molecule type: double-stranded DNA, one strand shown
Matrix: in vitro
Tested at: not given
Notes: 8-mer, flanks averaged, mean of 2 arrays, mostly near background
Reference: not given
Reading: higher = stronger binding
Residues (chain): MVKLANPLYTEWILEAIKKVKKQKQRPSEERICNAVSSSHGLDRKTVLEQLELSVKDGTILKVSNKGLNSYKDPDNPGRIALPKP
With `TCTCCCAA` the E-score was -0.116.
`ACAGACCT` has an E-score of 0.0281.
For `GTATAATA`, the E-score was 0.0421.
For `GCGCTTAC`, the E-score was 0.377.
The E-score of `GCATCTCC` is reported as 0.141.
With `CTGTCCTA` the E-score was -0.345.
The E-score of `ATCACGAG` is reported as -0.261.
`CCCGTCTC` gave an E-score of 0.303.
`GCACAATA` gave an E-score of -0.0961.
The E-score of `CCGCCGAG` is reported as 0.354.
`AACTCCGC` gave an E-score of 0.0575.
`ATGGGAAA` has an E-score of -0.238.
With `ACGTGATG` the E-score was -0.189.
`GGCGTCAC` has an E-score of 0.169.
The E-score of `GACTACGA` is reported as -0.18.
`AACTTGCC` gave an E-score of -0.072.
For `CGCCTTTC`, the E-score was 0.188.
The E-score of `GGCACCCC` is reported as 0.148.
With `CAGTGCGC` the E-score was 0.334.
`ACCGGGAT` has an E-score of 0.254.
`TGCGGTAA` gave an E-score of 0.256.
`ACACCTAT` has an E-score of -0.0278.
`CGGGACAC` gave an E-score of 0.216.
`CTAGATTA` gave an E-score of -0.0408.
With `AGTTGTCG` the E-score was -0.104.

Some of these lines once more (set 2):
Under “mean fluorescence intensity”, `2'F-ANA at 1 3 4 7 8 9 11 13` is recorded as 149 a.u.
For `2'F-ANA at 1 2 5 6 11 13 14`, “mean fluorescence intensity” read 56.4 a.u.
Under “mean fluorescence intensity”, `2'F-ANA at 1 4 5 6 9 11 12 13 14` is recorded as 54 a.u.
